Experimental data collected from several papers.
Each line is one published result; not all experiments were run side by side. Values joined by “and” are separate records of one study, mostly repeats; a detail may differ. Numbers after ± are the reported error.
pyrD: Dihydroorotate dehydrogenase (quinone) (pyrD, Acinetobacter baumannii, UniProt B7GZW7)
UniProt B7GZW7, sequence (whole entry, looked up): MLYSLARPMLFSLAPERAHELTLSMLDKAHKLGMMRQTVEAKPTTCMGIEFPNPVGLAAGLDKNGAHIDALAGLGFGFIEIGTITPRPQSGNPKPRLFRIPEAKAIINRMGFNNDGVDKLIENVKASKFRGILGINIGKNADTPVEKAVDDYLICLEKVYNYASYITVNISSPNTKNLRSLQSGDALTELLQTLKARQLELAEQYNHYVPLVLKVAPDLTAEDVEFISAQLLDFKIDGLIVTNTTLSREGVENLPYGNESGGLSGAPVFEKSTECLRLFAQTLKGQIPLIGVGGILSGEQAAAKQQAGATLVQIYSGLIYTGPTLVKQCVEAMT
Kir3.1/Kir3.4: Kir3.1/Kir3.4 (Homo sapiens, UniProt P48544+P48549)
UniProt P48549, sequence (whole entry, looked up): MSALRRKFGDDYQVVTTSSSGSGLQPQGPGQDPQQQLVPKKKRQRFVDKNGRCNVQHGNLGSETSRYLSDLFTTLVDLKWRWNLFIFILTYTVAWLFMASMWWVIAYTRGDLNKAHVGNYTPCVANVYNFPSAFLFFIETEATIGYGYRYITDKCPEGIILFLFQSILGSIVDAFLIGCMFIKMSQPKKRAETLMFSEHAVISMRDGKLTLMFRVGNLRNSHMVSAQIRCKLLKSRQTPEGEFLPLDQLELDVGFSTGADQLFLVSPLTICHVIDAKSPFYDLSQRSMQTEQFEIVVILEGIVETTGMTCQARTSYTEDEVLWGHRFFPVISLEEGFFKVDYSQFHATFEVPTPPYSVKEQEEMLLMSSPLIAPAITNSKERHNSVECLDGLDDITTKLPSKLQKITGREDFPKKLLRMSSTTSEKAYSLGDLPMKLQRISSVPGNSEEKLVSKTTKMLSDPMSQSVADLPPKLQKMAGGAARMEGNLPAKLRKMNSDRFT
UniProt P48544, sequence (whole entry, looked up): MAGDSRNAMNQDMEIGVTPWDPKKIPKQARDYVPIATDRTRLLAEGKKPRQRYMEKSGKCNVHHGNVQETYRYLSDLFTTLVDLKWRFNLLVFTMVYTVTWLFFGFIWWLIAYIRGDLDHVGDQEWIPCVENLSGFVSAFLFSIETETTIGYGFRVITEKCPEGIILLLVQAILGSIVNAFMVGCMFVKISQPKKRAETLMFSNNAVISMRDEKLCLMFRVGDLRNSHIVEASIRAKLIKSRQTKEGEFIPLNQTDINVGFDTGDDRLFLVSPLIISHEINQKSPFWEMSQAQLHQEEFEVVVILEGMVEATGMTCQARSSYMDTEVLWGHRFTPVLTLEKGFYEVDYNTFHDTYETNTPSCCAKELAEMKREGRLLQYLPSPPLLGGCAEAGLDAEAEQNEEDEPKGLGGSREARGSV
AKR1B1: Aldo-keto reductase family 1 member B1 (AKR1B1, Homo sapiens, UniProt P15121)
T1: riboswitch RNA C63G (Bacillus); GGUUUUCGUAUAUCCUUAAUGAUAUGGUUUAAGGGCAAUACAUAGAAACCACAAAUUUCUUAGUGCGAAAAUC
T2: ssDNA, aptamer; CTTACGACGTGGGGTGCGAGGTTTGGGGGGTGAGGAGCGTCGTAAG
UniProt Q695T7, sequence (whole entry, looked up): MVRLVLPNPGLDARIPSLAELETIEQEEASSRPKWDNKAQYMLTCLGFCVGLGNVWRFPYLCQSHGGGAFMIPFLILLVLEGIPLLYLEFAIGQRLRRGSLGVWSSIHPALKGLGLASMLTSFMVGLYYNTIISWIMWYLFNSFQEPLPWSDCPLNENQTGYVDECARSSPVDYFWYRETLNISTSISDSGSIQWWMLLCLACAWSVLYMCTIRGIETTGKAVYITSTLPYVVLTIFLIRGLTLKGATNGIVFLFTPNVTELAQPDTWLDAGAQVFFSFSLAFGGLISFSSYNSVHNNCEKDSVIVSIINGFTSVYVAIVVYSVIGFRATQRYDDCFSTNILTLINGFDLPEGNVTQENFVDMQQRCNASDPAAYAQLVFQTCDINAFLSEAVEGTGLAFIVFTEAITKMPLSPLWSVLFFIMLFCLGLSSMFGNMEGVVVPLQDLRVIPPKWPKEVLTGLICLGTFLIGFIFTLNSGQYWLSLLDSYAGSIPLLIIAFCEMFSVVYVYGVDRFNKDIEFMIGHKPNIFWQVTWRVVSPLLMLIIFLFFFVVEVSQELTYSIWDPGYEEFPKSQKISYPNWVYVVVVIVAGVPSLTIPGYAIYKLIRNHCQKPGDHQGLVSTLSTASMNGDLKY
UniProt Q64663, sequence (whole entry, unmodified, looked up): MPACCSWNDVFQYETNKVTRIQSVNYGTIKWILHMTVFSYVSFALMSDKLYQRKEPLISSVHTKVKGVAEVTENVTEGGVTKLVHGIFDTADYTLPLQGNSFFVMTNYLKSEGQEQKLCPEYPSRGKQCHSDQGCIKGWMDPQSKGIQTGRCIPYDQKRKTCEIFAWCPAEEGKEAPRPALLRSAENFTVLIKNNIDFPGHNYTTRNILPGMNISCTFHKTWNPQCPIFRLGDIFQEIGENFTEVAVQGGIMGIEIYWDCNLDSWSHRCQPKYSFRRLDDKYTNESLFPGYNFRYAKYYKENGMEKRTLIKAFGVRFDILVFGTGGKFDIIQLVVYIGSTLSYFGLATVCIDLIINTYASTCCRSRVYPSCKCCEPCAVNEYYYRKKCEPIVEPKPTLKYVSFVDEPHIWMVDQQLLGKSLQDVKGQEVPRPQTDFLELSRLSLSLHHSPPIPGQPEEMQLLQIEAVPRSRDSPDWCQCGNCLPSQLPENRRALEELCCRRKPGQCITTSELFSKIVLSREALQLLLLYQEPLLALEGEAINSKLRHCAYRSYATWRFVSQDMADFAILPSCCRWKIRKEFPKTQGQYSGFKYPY
UniProt P51575, sequence (whole entry, unmodified, looked up): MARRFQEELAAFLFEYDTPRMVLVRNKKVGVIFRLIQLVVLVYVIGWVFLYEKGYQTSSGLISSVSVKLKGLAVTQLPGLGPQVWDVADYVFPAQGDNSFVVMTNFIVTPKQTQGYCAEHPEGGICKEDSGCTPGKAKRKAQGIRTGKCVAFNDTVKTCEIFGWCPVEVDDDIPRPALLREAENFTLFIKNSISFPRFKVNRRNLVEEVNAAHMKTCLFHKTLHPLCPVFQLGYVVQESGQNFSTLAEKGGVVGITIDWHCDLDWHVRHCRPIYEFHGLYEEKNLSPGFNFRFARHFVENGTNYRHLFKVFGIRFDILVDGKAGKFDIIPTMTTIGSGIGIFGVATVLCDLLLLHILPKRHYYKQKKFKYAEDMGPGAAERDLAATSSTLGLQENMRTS
UniProt P11388, sequence (whole entry, looked up): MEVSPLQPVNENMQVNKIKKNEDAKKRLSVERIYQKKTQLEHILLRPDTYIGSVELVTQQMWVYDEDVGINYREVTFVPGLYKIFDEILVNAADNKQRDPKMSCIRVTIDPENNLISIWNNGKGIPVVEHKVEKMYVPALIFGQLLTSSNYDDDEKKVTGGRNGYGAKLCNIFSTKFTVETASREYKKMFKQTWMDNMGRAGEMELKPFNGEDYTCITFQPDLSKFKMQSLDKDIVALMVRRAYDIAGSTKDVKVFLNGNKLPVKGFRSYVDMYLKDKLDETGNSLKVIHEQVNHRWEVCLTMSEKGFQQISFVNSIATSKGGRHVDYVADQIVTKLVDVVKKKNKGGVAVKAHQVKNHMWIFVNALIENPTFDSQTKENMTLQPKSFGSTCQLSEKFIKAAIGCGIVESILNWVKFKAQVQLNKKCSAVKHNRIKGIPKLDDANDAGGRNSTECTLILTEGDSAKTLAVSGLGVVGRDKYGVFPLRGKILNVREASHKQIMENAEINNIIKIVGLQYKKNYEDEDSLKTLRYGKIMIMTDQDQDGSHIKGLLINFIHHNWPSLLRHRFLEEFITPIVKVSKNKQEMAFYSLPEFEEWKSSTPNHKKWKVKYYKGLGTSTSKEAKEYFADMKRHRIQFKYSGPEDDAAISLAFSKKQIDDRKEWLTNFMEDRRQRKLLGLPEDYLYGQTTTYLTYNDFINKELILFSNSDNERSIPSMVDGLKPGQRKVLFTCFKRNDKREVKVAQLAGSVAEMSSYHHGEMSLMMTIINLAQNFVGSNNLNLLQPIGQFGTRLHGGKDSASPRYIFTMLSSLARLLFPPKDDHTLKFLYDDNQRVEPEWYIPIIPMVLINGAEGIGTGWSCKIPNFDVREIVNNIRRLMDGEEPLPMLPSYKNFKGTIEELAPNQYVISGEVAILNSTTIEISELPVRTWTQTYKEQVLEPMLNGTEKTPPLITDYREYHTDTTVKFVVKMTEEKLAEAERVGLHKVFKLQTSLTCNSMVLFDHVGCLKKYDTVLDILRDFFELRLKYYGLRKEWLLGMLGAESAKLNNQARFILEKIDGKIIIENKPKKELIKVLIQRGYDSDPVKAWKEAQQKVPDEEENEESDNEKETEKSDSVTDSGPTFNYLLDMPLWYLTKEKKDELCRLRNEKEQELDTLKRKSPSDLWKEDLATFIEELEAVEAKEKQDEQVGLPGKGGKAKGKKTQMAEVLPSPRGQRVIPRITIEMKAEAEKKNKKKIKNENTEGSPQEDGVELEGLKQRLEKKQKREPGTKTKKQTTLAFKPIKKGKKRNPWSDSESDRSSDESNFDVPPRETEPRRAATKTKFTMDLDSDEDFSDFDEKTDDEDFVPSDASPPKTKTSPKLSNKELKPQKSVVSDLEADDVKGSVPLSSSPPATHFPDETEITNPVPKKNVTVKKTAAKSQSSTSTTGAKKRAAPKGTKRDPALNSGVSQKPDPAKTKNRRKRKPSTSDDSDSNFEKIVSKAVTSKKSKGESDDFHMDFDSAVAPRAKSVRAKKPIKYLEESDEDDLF
UniProt Q9NSA0, sequence (whole entry, looked up): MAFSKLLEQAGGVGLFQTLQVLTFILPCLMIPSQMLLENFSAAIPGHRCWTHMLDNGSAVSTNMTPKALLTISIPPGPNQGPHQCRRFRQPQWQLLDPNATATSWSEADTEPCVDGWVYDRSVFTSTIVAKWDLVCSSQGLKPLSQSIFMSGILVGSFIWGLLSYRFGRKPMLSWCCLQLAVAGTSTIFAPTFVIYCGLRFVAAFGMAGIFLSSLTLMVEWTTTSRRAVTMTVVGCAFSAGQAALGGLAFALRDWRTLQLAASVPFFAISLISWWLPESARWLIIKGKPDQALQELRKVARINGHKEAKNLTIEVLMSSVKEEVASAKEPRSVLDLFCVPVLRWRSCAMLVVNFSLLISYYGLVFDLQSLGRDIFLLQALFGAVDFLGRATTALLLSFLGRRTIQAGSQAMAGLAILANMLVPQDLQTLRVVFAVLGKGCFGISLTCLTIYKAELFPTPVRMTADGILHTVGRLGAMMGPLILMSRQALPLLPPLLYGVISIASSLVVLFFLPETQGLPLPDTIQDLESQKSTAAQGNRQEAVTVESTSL

SMILES	target	assay	system	conditions	how to read	quantity	value
COCCC(=O)N1CCC(Oc2ccccc2)C1 (centres unmarked)	Protein transport protein Sec31A (SEC31A, Homo sapiens, UniProt O94979)	binding, affinity selection mass spectrometry			relative to: other proteins in batch	log fold enrichment	0.000284
Cc1nc2ncnn2c(Nc2ccc(C(F)(F)F)cc2)c1C	pyrD	enzyme activity, inhibitor, colorimetric HTS, refers to: DCIP reduction		3 µM	direction not given	robust Z-score	15.5
CC(C)C[C@H](N)C(=O)O	snf (Aquifex aeolicus, UniProt O67854)	scintillation proximity		10 nM LeuT		Bmax	5680 ± 310 cpm/pmol LeuT
Nc1nc2c(ncn2[C@@H]2O[C@H](COP(=O)(O)O)[C@@H](O)[C@H]2O)c(=O)[nH]1	GUK1 (Homo sapiens, UniProt Q16774, T83A)	binding, ITC				ΔG	-5.44 kcal/mol
C[C@]12C[C@H](O)[C@H]3[C@@H](CCC4=CC(=O)CC[C@@]43C)[C@@H]1CC[C@@H]2C(=O)CO	CYP11B1 (Homo sapiens, UniProt P15538)		nanodiscs	25 °C, fast phase		kon	240000 ± 30000 M⁻¹ s⁻¹
CC(F)(F)c1nc2nc(CO)cc(Nc3ccc(S(F)(F)(F)(F)F)cc3)n2n1	pyrD	enzyme activity, inhibitor, colorimetric HTS, refers to: DCIP reduction		3 µM	direction not given	robust Z-score	14
CC1=NN(c2ccc(C)cc2)C(=O)C1=NNc1ccc(S(N)(=O)=O)cc1	bovine α-glucosidase	enzyme activity, inhibitor, glucose oxidase		500 µg/mL, with: maltose		inhibition	44.4%
CC(C)OCCn1c(=S)[nH]c(=O)c2[nH]ccc21	Myeloperoxidase (MPO, Homo sapiens, UniProt P05164)	H2O2 consumption, inhibitor, H2O2 electrode		0.226 µM, 0 s		H2O2 concentration	-33.1 µM
COC(=O)c1ccc(NC(=O)COc2cc(Cl)ccc2Cl)s1	Kir3.1/Kir3.4	activator, thallium flux	HEK293	concentration not given		activity	inactive
CN(C)C(=O)C(CCN1CCC(O)(c2ccc(Cl)cc2)CC1)(c1ccccc1)c1ccccc1	Calcium-activated potassium channel subunit alpha-1, with LRRC26 γ1 subunit (KCNMA1, Homo sapiens, UniProt Q12791)	BK current, inside-out patch clamp	excised membrane patch	0.1 µM, γ1 coexpressed, individual fits, with: nominally 0 Ca2+ cytosolic		effective gating valence	1.23 ± 0.12 elementary charges
NC(=O)c1ccc[n+]([C@@H]2O[C@H](COP(=O)([O-])OP(=O)(O)OC[C@H]3O[C@@H](n4cnc5c(NCCNC(=O)CCCCCNC(=O)CCCCCNC(=O)CCCC[C@@H]6SC[C@@H]7NC(=O)N[C@@H]76)ncnc54)[C@H](O)[C@@H]3O)[C@@H](O)[C@H]2O)c1	PARP11 (Homo sapiens, UniProt Q9NR21)	substrate, DELFIA auto-modification				apparent Km	18 µM
[H]/N=C(/N)NCC(=O)O	SLC6A6 (Homo sapiens, UniProt P31641, G62A)	binding, microscale thermophoresis		1 mM, room temperature, with: 50 nM labelled protein	higher = more binding	normalised MST signal	-0.00235
COc1ccc(/C=C2\SC(=O)N(CC(=O)c3ccc([N+](=O)[O-])cc3)C2=O)cc1	AKR1B1	enzyme activity, inhibitor				Hill slope	-0.555
CCNC(=O)/C=C/c1cccc(Br)c1	SLC6A19 (Homo sapiens, UniProt Q695T7)	inhibitor, L-[14C]leucine uptake	CHO-BC cells	30 µM, sodium-free		L-leucine uptake	5.3 nmol/6 min/mg protein and 5.57 nmol/6 min/mg protein and 5.34 nmol/6 min/mg protein
O=C1S/C(=C\c2ccc(Cl)cc2)C(=O)N1Cc1nc2ccccc2s1	AKR1B1	enzyme activity, inhibitor				Hill slope	-0.488
NS(=O)(=O)NCCNc1nonc1C(=NO)Nc1ccc(F)c(Br)c1	IDO1 (Homo sapiens, UniProt P14902)	thermal stability, nanoDSF		50 µM, 1% DMSO, no DTT, with: SHG1-labelled protein		ΔTi	4 °C
O=C(O)c1ccc(C(=O)O)c(-c2c3ccc(=O)cc-3oc3cc(O)ccc23)c1	SLC22A11 (Homo sapiens, UniProt Q9NSA0)	substrate	CHO cells expressing human OAT4	5 min, pH 7.4		Jmax	1300 ± 1280 pmol/cm2/min
Nc1nc2c(ncn2[C@H]2C[C@H](O)[C@@H](CO)O2)c(=O)[nH]1	T1, riboswitch RNA C63G (Bacillus)	ITC		KCl 50 mM		binding	no binding
N[C@@H](Cc1ccccc1)C(=O)Nc1ccc2ccccc2c1	rat aminopeptidase III	substrate		MW 110 kDa		kcat	5.17 s⁻¹

SMILES	target	assay	system	conditions	how to read	quantity	value
C=CC(=O)N1CCC(COCC(=O)N2CCN(c3nc(-c4cnc(N)nc4C(F)F)nc(N4CCOC[C@@H]4C)n3)CC2)CC1	TNK1 (Homo sapiens, UniProt Q13470)	KINOMEscan		1 µM		remaining binding	94%
COC(=O)c1ccc(NC(=O)COc2cccc(Cl)c2Cl)s1	Kir3.1/Kir3.4	activator, thallium flux	HEK293	concentration not given		activity	inactive
O=c1nc(SCc2cc(F)cc(C(F)(F)F)c2)nc(SCc2ccc3nc(Cl)ccc3c2)[nH]1	TOP2A (Homo sapiens, UniProt P11388)	ATPase activity		7.8 µM, with: ATP 0.5 mM		ATP hydrolysis rate	2.19 µM/min and 0.124 µM/min
N#Cc1ccn2c(-c3ccncc3)c(-c3ccc(F)cc3)nc2c1	Cyclin-dependent kinase 1 (CDC28, Candida albicans, UniProt P43063)	kinase binding, competitor, MIB/MS competition, refers to: CDC28	Candida albicans cell lysate	10 µM	relative to: DMSO	log2 fold change	-0.167
COc1ccc(/C=C2\SC(=O)N(Cc3nc4ccccc4s3)C2=O)cc1	AKR1B1	enzyme activity, inhibitor				log IC50	2.98 log nM
CCCCCCCc1ccc(Nc2cc(C)nc3ncnn23)cc1	pyrD	enzyme activity, inhibitor, colorimetric HTS, refers to: DCIP reduction		3 µM	direction not given	robust Z-score	18.5
Cc1ccc(S(=O)(=O)Oc2ccccc2NC(=O)c2ccc3ncccc3c2)cc1	P2X purinoceptor 4 (P2RX4, Homo sapiens, UniProt Q99571)	calcium mobilization	MCF7 stably transfected	100 µM, with: ATP 100 µM		fluorescence increase	82.4 ± 1.55%
CC(=O)Nc1ccc(O)cc1	BRD4 (Homo sapiens, UniProt O60885)	19F NMR, refers to: tyrosine 119		188 µM	relative to: free protein	chemical shift change	0.094 ppm
Nc1ncnc2c1ncn2[C@@H]1O[C@H](COP(=O)(O)CP(=O)(O)OP(=O)(O)O)[C@@H](O)[C@H]1O	P2X purinoceptor 1 (P2RX1, Homo sapiens, UniProt P51575, E122A)	calcium influx		3.16 µM	relative to: ionomycin response	calcium influx	83.5% and 70.7% and 71.9% and 74.8%
NC/C(=C\F)COc1cccc(Cn2c(=S)[nH]c(=O)c3[nH]cnc32)c1	AOC3 (Homo sapiens, UniProt Q16853)	enzyme activity, Amplex Red H2O2 production		30 µM		activity response	100%
COc1cc(/C=C/c2ccc(O)cc2)cc(OC)c1	O-methyltransferase (Sorghum bicolor, UniProt A0A1B6PFV1)	ITC		one set of sites, with: SFG		∆H	-7.62 ± 0.784 kcal/mol
CCc1cc(NC(=O)COc2cc(Cl)ccc2Cl)n(C2CCOCC2)n1	Kir3.1/Kir3.4	thallium flux, activator	HEK293		relative to: standard compound	Emax	64%
O=C(COP(=O)(O)O)[C@@H](O)[C@H](O)[C@H](O)COP(=O)(O)O	26S proteasome non-ATPase regulatory subunit 6 (Homo sapiens, UniProt Q15008)	thermal proteome profiling, refers to: PSMD6	HepG2 cell lysate	concentration not given, 57 over 37 °C, mean	relative to: compound over control	thermal stability ratio	0.553
Nc1ncnc2c1ncn2[C@@H]1O[C@H](COP(=O)(O)OP(=O)(O)OP(=O)(O)O)[C@@H](O)[C@H]1O	P2X purinoceptor 7 (P2rx7, Rattus norvegicus, UniProt Q64663, I214A)	ion current, agonist, two-electrode voltage clamp	Xenopus laevis oocytes	100 µM	relative to: highest concentration response	normalized current	0.73 and 0.817 and 0.635
O=C(COc1ccc(Cl)cc1Cl)NCc1cccs1	Kir3.1/Kir3.4	activator, thallium flux	HEK293	concentration not given		activity	inactive
CCN(CC)c1ccc(C(=O)NCCc2c(C)[nH]c3ccccc23)cc1	PTGIR (Homo sapiens, UniProt P43119)	IP accumulation, antagonist, Schild analysis, single concentration	C6 glioma cells overexpressing receptor	10 µM		KB	< 10 mM
Nc1ncnc2c1ncn2[C@@H]1O[C@H](COP(=O)(O)OP(=O)(O)OP(=O)(O)O)[C@@H](O)[C@H]1O	T2, ssDNA, aptamer	ITC				Kd	1.13 µM
c1coc(-c2n[nH]cc2-c2ccnc3ccccc23)c1	Serine/threonine-protein kinase CLA4 (CLA4, Candida albicans, UniProt O14427)	kinase binding, MIB/MS competition	Candida albicans lysate	1 µM	relative to: DMSO, negative = stronger binding	log2 fold change	-0.04
C=CC(=O)N1CCC[C@@H](n2nc(-c3ccc(Oc4ccccc4)cc3)c3c(N)ncnc32)C1	Insulin receptor (INSR, Homo sapiens, UniProt P06213)			1 µM		remaining activity	195%

Some of these lines once more:
SMILES	target	assay	system	conditions	how to read	quantity	value
O=C(COP(=O)(O)O)[C@@H](O)[C@H](O)[C@H](O)COP(=O)(O)O	26S proteasome non-ATPase regulatory subunit 6 (Homo sapiens, UniProt Q15008)	thermal proteome profiling, refers to: PSMD6	HepG2 cell lysate	concentration not given, 57 over 37 °C, mean	relative to: compound over control	thermal stability ratio	0.553
Nc1ncnc2c1ncn2[C@@H]1O[C@H](COP(=O)(O)OP(=O)(O)OP(=O)(O)O)[C@@H](O)[C@H]1O	P2X purinoceptor 7 (P2rx7, Rattus norvegicus, UniProt Q64663, I214A)	ion current, agonist, two-electrode voltage clamp	Xenopus laevis oocytes	100 µM	relative to: highest concentration response	normalized current	0.73 and 0.817 and 0.635
